# Results gathered from unrelated publications.
# Protocols differ between the studies behind these lines.
# Target: Mitogen-activated protein kinase 13 (MAPK13, Homo sapiens, UniProt O15264)
Compound,assay,conditions,scale,endpoint,result
CCN1CCN(Cc2ccc(C(=O)Nc3ccc(C)c(NCc4cnc5[nH]ccc5c4OC)c3)cc2C(F)(F)F)CC1,"binding, competition with immobilised ligand",1 µM,,remaining binding,100%
COc1cc(Nc2nc(C)cc(-c3cnn4nc(OC)ccc34)n2)cc(C(F)(F)F)c1,KINOMEscan,"1 µM, p38-delta",reference: DMSO,remaining binding,95%
C=CC(=O)N1CCc2ccc(-n3c(=O)ccc4cnc5ccc(-c6cnn(C)c6)cc5c43)cc21,KINOMEscan,1 µM,reference: DMSO control,remaining binding,96%
Cc1cccc(-c2ccc3nc(NC(=O)C4CCCCC4)nn3c2)c1,"enzyme activity, Dundee kinase panel",10 µM,,remaining activity,78%
CN1CC[C@@H](COc2cnc(C#N)cc2-c2ccn3nc(NC(=O)C4CC4)cc3c2)C1,"enzyme activity, inhibitor",1 µM,,inhibition,-1%
C=CC(=O)N1Cc2nc(-c3cc(-c4cc(Cl)cnc4Cl)c(F)cc3F)n(-c3ccncn3)c2C1,"cell-free assay, inhibitor",1 µM,,inhibition,6.4%
CNC(=O)C1CCN(c2cc(C)c(F)cc2NC(=O)c2ccc(-c3cc(O)ccc3C)c(C)c2)CC1,"binding, competition with immobilised ligand",1 µM,,remaining binding,99%
COc1ccc(C(=O)/C=C/c2ccccc2-c2c[nH]c3ccc(C#N)cc23)c(O)c1,"enzyme activity, inhibitor",20 µM,,inhibition,-1%
Cc1cccc(O[C@H]2CCC[C@@H](C(C)CNCc3ccncc3)C2)c1 (relative stereo),"enzyme activity, inhibitor",1 µM,,inhibition,-1%
NC(=O)[C@@H](O)C[C@H]1CCc2sc3ncnc(O[C@H]4CC[C@H](N5CCOCC5)CC4)c3c21,"enzyme activity, inhibitor",10 µM,,inhibition,0%
Cc1cccc(-c2ccc3nc(NC(=O)C4CCCO4)nn3c2)c1 (stereo not shown),"enzyme activity, Dundee kinase panel",10 µM,,remaining activity,86%
C=CC(=O)Nc1cccc(-c2cnc3[nH]cc(C(=O)NC(C)(C)C)c3n2)c1,"enzyme activity, inhibitor",0.1 µM,,inhibition,3%
COc1c(Cl)cccc1Nc1c(-c2ccncc2C#C[C@@]2(C)CCCN2C(=O)/C=C/CN(C)C)[nH]c2c1C(=O)NCC2,"binding, competition with immobilised ligand",3 µM,,remaining binding,94%
Nc1nc(Nc2ccccc2)sc1C(=O)c1ccccc1,"enzyme activity, inhibitor",10 µM,,remaining activity,56%
Nc1ncc2c(n1)-c1c([nH]c3ccc(C4=CCOCC4)cc13)CCC2,"binding, competition with immobilised ligand",1 µM,,remaining binding,100%
CNC1C[S+]2CC[S+]3CC[S+](C1)[Ru-4]321([N]=C=S)[n]2c3ccc(OC)cc3c3c4c(c5cc(F)c[n+]1c5c32)C(=O)NC4=O (stereo not shown),KinomeScan,0.1 µM,reference: untreated,remaining binding,49%

# For quick reference, copied from above:
Compound,assay,conditions,scale,endpoint,result
C=CC(=O)Nc1cccc(-c2cnc3[nH]cc(C(=O)NC(C)(C)C)c3n2)c1,"enzyme activity, inhibitor",0.1 µM,,inhibition,3%
